Experimental data from different studies.
Each line is one published result; not all experiments were run side by side. ± marks the error that the study gave.
cofactor-independent phosphoglycerate mutase W431C: cofactor-independent phosphoglycerate mutase (Metamycoplasma orale, UniProt A0A448ZXM1, W431C)
Sequence of UniProt P21729 (whole entry, looked up): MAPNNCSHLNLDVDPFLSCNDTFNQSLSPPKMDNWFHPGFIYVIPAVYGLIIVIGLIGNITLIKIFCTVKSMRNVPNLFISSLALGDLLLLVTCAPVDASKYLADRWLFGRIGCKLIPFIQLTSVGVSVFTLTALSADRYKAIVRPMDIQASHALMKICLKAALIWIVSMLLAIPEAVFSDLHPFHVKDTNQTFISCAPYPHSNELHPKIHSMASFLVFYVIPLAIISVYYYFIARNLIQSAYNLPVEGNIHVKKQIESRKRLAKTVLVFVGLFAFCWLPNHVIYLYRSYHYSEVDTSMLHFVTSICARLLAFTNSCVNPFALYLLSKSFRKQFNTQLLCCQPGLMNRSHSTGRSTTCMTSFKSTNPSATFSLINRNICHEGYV

`CCCCCCCCCCCCCCCC(=O)N[C@@H](CCC(=O)NCCCC[C@H](NC(=O)[C@H](CC(=O)O)NC(=O)[C@H](CO)NC(=O)[C@@H](NC(=O)[C@H](Cc1ccccc1)NC(=O)[C@@H](NC(=O)CNC(=O)[C@H](CCC(N)=O)NC(=O)[C@H](C)NC(=O)[C@@H](Cc1ccc(O)cc1)NC(C)=O)[C@@H](C)O)[C@@H](C)O)C(=O)N[C@@H](CO)C(=O)N[C@@H](CCCCN)C(=O)N[C@@H](Cc1ccc(O)cc1)C(=O)N[C@@H](CC(C)C)C(=O)N[C@@H](CC(=O)O)C(=O)N[C@@H](CCC(=O)O)C(=O)N[C@@H](CCCNC(=N)N)C(=O)N[C@@H](C)C(=O)N[C@@H](C)C(=O)N[C@@H](CCC(N)=O)C(=O)N[C@@H](CC(=O)O)C(=O)N[C@@H](Cc1ccccc1)C(=O)N[C@H](C(=O)N[C@@H](CCC(N)=O)C(=O)N[C@@H](Cc1c[nH]c2ccccc12)C(=O)N[C@@H](CC(C)C)C(=O)N[C@@H](CC(C)C)C(=O)N[C@@H](CCC(=O)O)C(=O)NCC(=O)NCC(=O)N1CCC[C@H]1C(=O)N[C@@H](CO)C(=O)N[C@@H](CO)C(=O)NCC(=O)N[C@@H](C)C(=O)N1CCC[C@H]1C(=O)N1CCC[C@H]1C(=O)N1CCC[C@H]1C(=O)N[C@@H](CO)C(N)=O)C(C)C)C(=O)O` — result for “heart rate increase”: 19 bpm (Holter monitoring; human; subcutaneous, 50 µg single dose, first 48 h; baseline: baseline).
`CC(C)[C@H](NC(=O)CNC(=O)[C@H](CCC(N)=O)NC(=O)[C@H](C)N)C(=O)O`: “subjects with Definitely related AE” 0% (healthy male volunteers; intravenous, 90 mg/kg/h, 2 h, added: LPS 2 ng/kg).
`CC(C)(CCCC/C=C/CCCCCC(C)(C)C(=O)O)C(=O)O` has a Vd of 0.29 L/kg (beagle dog, plasma; intravenous, 5 mg/kg).
For `CN(C)C(CNC(=O)Nc1cc(C(F)(F)F)ccc1N1CCOCC1)c1ccncc1` (stereo not shown), the serum cholesterol was 76 mg/dL (mouse, serum; intraperitoneal, 180 mg/kg single dose).
With `CC(C)[C@@H]1NC(=O)[C@H](CCCNC(=N)N)NC(=O)[C@H](Cc2ccc(O)cc2)NC(=O)[C@H](CO)NC(=O)[C@H](Cc2ccc(O)cc2)NC(=O)[C@H](CC(N)=O)NC(=O)CNC(=O)[C@H](Cc2ccc(O)cc2)NC(=O)[C@H](Cc2ccccc2)NC(=O)[C@H](CC(=O)O)NC(=O)[C@H](Cc2ccc(O)cc2)NC(=O)[C@H](Cc2ccccc2)NC(=O)[C@H](Cc2ccc(O)cc2)NC(=O)[C@H](Cc2ccc(O)cc2)NC(=O)CSC[C@@H](C(N)=O)NC(=O)[C@@H]2CCCN2C1=O` the AC50 was 17.8 µM (cofactor-independent phosphoglycerate mutase W431C; biochemical; Mycoplasma orale).
For `O=c1cc(-c2ccccc2)oc2c(Br)c(O)c(O)c(O)c12`, the CL was 99.8 ± 52.4 mL/h (C57BL/6 mouse, plasma; po, 250 mg/kg).
The tracer uptake of `CN[C@](C)(C[18F])C(=O)O` is reported as 1.3 %ID/g (MDA-MB-468 tumour model; host not given, bone; 1 h, tumour-bearing).
`CC(=O)[O-].CN1CCCN2CCN(CCCN(Cc3ccccc3)CC2)CC1.F[P-](F)(F)(F)(F)F.[Ni+2]` has an oxidation potential of 1.28 V (cyclic voltammetry, measured: Ni(II)/Ni(III); acetonitrile; irreversible anodic peak; baseline: SHE).
`COc1ccnc(-c2cc(OC)ccn2)c1.O.[C-]#[O+].[C-]#[O+].[C-]#[O+].[Re+]` gave a capacity factor of 3.6 (RP-HPLC C18 column, measured: aqua complex; MeCN:water 40:60, 0.1% TFA; isocratic elution).
For `COC(=O)C[C@](O)(CCCC(C)(C)OC(C)=O)C(=O)O[C@@H]1C(OC)=C[C@]23CCCN2CCc2cc4c(cc2[C@H]13)OCO4`, the tissue concentration was 641 ng/mL (CD1 mouse, lung; oral, 1 mg/kg, 0.5 h).
The tumour/blood ratio of `O=C(O)CCC(NP(=O)(O)OCCC[C@@H](NC(=O)CCC(NC(=O)c1ccc([18F])cc1)C(=O)O)C(=O)O)C(=O)O` (stereo partly shown) is reported as 5.42 ± 1.43 (radioactivity biodistribution; mouse, PC-3 xenograft, tumour, blood; 2 h).
`CCCC[C@H](NC(=O)CNC(=O)CNC(=O)c1ccc(NN)nc1)C(=O)N[C@H]1CC(=O)NCCCC[C@@H](C(N)=O)NC(=O)[C@H](Cc2c[nH]c3ccccc23)NC(=O)[C@H](CCCNC(=N)N)NC(=O)[C@@H](Cc2ccccc2)NC(=O)[C@H](Cc2c[nH]cn2)NC1=O` [technetium-99m labelled]: “tissue uptake ratio” 151 (C57 mouse, B16/F1 melanoma-bearing; intravenous, 24 h; baseline: tumour over blood).
Under “apparent volume of distribution (Vz/F)”, `C[C@@](O)(C(F)F)[C@H](NC(=O)c1ccc(C#CC#CC2CC2)cc1)C(=O)NO` is recorded as 2.7 ± 0.7 L/kg (CD-1 mice; intraperitoneal, 40 mg/kg).
`CCCNC(=O)[C@H](CC(C)C)NC(=O)[C@H](Cc1c[nH]cn1)NC(=O)CNC(=O)[C@@H](NC(=O)[C@H](C)NC(=O)[C@H](Cc1c[nH]c2ccccc12)NC(=O)[C@H](CCC(N)=O)NC(=O)[C@@H](Cc1ccccc1)NC(=O)CCCCCNC(=O)CN1CCN(CC(=O)O)CCN(CC(=O)O)CCN(CC(=O)O)CC1)C(C)C` [indium-111 labelled] has a tissue uptake of 0.24 ± 0.02 %ID/g (Gastrin-releasing peptide receptor (Mus musculus, UniProt P21729); biodistribution; CF-1 mice, blood; intravenous, 1 h, added: bombesin 100 µg, blocking).
For `O=C(c1ccc(F)cc1)C1CCN(C2Cc3c(cccc3OCC[18F])CC2O)CC1` (single isomer, unassigned; (-)), the tissue uptake was 0.39 ± 0.031 %ID/g (Sprague-Dawley rat, male, heart; intravenous, dose not given, 30 min).
`CCC(=O)N(C)c1ccc(Cl)c(Cl)c1` has a revertants of 28 ± 11.2 revertants/plate (Escherichia coli; Ames test; WP2 uvrA; 0.10 mg/plate, without S9 activation).
Under “limiting apparent molar volume”, `CCCCCCCCCCCCC(=O)O.O=C1CCCC2C3CCCN4CCCC(CN12)C34` (stereo not shown) is recorded as 424.25 ± 0.2 cm³/mol (water; concentration not given, 298.15 K).
`N=C(N)NCCC[C@@H]1NC(=O)[C@H](CCCCNC(=O)CNC(=O)CNC(=O)CNC(=O)CC[C@H](NC(=O)CCOCCOCCOCCOCCNC(=O)CC[C@H](NC(=O)CN2CCN(CC(=O)O)CCN(CC(=O)O)CCN(CC(=O)O)CC2)C(=O)NCCOCCOCCOCCOCCC(=O)N[C@@H](CCC(=O)NCC(=O)NCC(=O)NCC(=O)NCCCC[C@@H]2NC(=O)[C@@H](Cc3ccccc3)NC(=O)[C@H](CC(=O)O)NC(=O)CNC(=O)[C@H](CCCNC(=N)N)NC2=O)C(=O)NCC(=O)NCC(=O)NCC(=O)NCCCC[C@@H]2NC(=O)[C@@H](Cc3ccccc3)NC(=O)[C@H](CC(=O)O)NC(=O)CNC(=O)[C@H](CCCNC(=N)N)NC2=O)C(=O)NCC(=O)NCC(=O)NCC(=O)NCCCC[C@@H]2NC(=O)[C@@H](Cc3ccccc3)NC(=O)[C@H](CC(=O)O)NC(=O)CNC(=O)[C@H](CCCNC(=N)N)NC2=O)NC(=O)[C@@H](Cc2ccccc2)NC(=O)[C@H](CC(=O)O)NC(=O)CNC1=O` [indium-111 labelled] has a tissue uptake of 0.06 ± 0.02 %ID/g (female athymic nude mice, brain; intravenous, 3 µCi, 4 h, U-87 MG glioma xenograft).
For `C/C=C/C=C/C/C=C/CCCCCCCc1cccc(O)c1O`, the tissue concentration was 43300 ± 3590 ng/g (female Kunming mice, tumour-bearing, tumor; intravenous, 10 mg/kg, 1 h).
`Nc1ccc(/C=C/C(=O)N2CCc3c(oc4c(-c5ccc(F)cc5)cc(-c5ccc(C(=O)N6CCC(F)(F)CC6)cn5)cc34)C2)cn1` has an IC50 of 0.38 to 0.94 µM (MIA PaCa-2; cell growth or viability, CCK-8; 72 h).
Under “subjects with severe adverse events”, `CC(C)[C@H](NC(=O)CNC(=O)[C@H](CCC(N)=O)NC(=O)[C@H](C)N)C(=O)O` is recorded as 0% (human; 1 mg/kg single dose).
For `CCc1cc2c(cc1N1CCC(N3CCOCC3)CC1)C(C)(C)c1c(c3ccc(C#N)cc3n1CC[18F])C2=O`, “brain uptake ratio” read 40 fold (PET; nude mouse, brain; 5 min; baseline: observed over vascular).
`COc1cc(NC(=O)C(=O)c2c(C)n(Cc3ccc(Cl)cc3)c3ccc(C)cc23)ccn1` gave an AUC of 3490 ng·h/mL (female cynomolgus monkey, plasma; oral, 10 mg/kg).
Under “plasma concentration difference”, `CCN1CCCC1CNC(=O)c1cc(Br)cc(OC)c1O[11CH3]` (stereo not shown) is recorded as 85% (rhesus monkey, arterial plasma; dose not given, 80 min; baseline: [18F]fallypride, lower than reference).
For `CC[C@H](C)CCCCC(=O)N[C@@H](CCN)C(=O)N[C@H](C(=O)N[C@@H](CCN)C(=O)N[C@H]1CCNC(=O)[C@H]([C@@H](C)O)NC(=O)[C@H](CCN)NC(=O)[C@H](CCN)NC(=O)[C@H](CC(C)C)NC(=O)[C@@H](Cc2ccccc2)NC(=O)[C@H](CCN)NC1=O)[C@@H](C)O`, “kidney AUC(4-16 h)” read 688 µg·h/g (LC-MS/MS; CD-1 mouse, kidney homogenate; subcutaneous, 17.2 mg/kg single dose, 4 to 16 h).
For `COc1ccc(CNc2nc(N3CCC[C@H]3CO)ncc2C(=O)NN)cc1Cl`, the revertant count was 153 ± 25 (Salmonella typhimurium; TA100; 62.5 µg/plate, 48 h, added: rat liver S9).
Under “last detectable time”, `N#CC1(c2ccc3c(N)ncnn23)OC(COP(=O)(O)OP(=O)(O)OP(=O)(O)O)C(O)C1O` (stereo not shown) is recorded as no more than 16 h (LC-MS/MS; male CD-1 mice, liver and kidney; oral, 100 mg/kg of remdesivir).
`COc1ccc(C[C@@H]2NC(=O)[C@H](Cc3ccc(O)cc3)NC(=O)[C@H](CO)NC(=O)[C@H](CC(=O)O)NC(=O)[C@H](Cc3ccc(O)cc3)NC(=O)[C@H](Cc3c[nH]c4ccccc34)NC(=O)[C@@H](Cc3ccc(O)cc3)NC(=O)CSC[C@@H](C(N)=O)NC(=O)[C@H]([C@@H](C)O)NC(=O)[C@H](Cc3ccc(O)cc3)NC(=O)[C@H](CCC(N)=O)NC(=O)[C@H](C)NC(=O)[C@H]([C@@H](C)O)NC(=O)CNC(=O)[C@@H]3CCCN3C(=O)[C@H](Cc3ccc(O)cc3)NC2=O)cc1` gave an AC50 of 19.1 µM (cofactor-independent phosphoglycerate mutase W431C; biochemical; Mycoplasma orale).
For `CC(C)C[C@H](NC(=O)[C@H](CCCCN)NC(=O)[C@H](CCC(=O)O)NC(=O)[C@H](C)NC(=O)[C@@H](NC(=O)[C@H](CCCCN)NC(=O)[C@H](CC(=O)O)NC(=O)[C@H](Cc1ccc(O)cc1)NC(=O)[C@H](Cc1ccccc1)NC(=O)[C@H](C)NC(=O)[C@H](CCCCN)NC(=O)[C@H](CC(C)C)NC(=O)[C@H](Cc1c[nH]c2ccccc12)NC(=O)[C@@H](N)CC(=O)O)C(C)C)C(=O)N[C@@H](CCCCN)C(=O)N[C@@H](CCC(=O)O)C(=O)N[C@@H](C)C(=O)N[C@@H](Cc1ccccc1)C(=O)N1CCC[C@H]1C(=O)N[C@@H](CC(=O)O)C(=O)N[C@@H](Cc1c[nH]c2ccccc12)C(=O)N[C@@H](C)C(=O)N[C@@H](CCCCN)C(=O)N[C@@H](C)C(=O)N[C@@H](C)C(=O)N[C@@H](Cc1ccc(O)cc1)C(=O)N[C@@H](CC(=O)O)C(=O)N[C@@H](CCCCN)C(=O)N[C@@H](C)C(=O)N[C@@H](C)C(=O)N[C@@H](CCC(=O)O)C(=O)N[C@@H](CCCCN)C(=O)N[C@@H](C)C(=O)N[C@@H](CCCCN)C(=O)N[C@@H](CCC(=O)O)C(=O)N[C@@H](C)C(=O)N[C@@H](C)C(=O)O`, “volume of distribution at steady state” read 0.076 L/kg (cynomolgus monkey female, plasma; intravenous infusion, 25 mg/kg every other day, day 27).
`CC[C@H](C)C(=O)N1CCC(NC(=O)Nc2ccc(OC(F)(F)F)c(F)c2)CC1`: “subjects with dermatitis TEAE” 0% (healthy volunteers; oral, 0.5 mg single dose, device site dermatitis).
`C[C@@H](O)[C@H](NC(=O)[C@H](CCC(=O)O)NC(=O)[C@H](Cc1ccccc1)NC(=O)[C@H](Cc1c[nH]c2ccccc12)NC(=O)[C@H](CCCCN)NC(=O)[C@H](CCCCN)NC(=O)[C@H](CCCCN)NC(=S)Nc1ccc2c(c1)C(=O)OC21c2ccc(O)cc2Oc2cc(O)ccc21)C(=O)N[C@@H](Cc1c[nH]c2ccccc12)C(=O)N[C@@H](Cc1ccccc1)C(=O)N[C@H](C(=O)N[C@@H](CCC(=O)O)C(=O)N[C@@H](Cc1c[nH]c2ccccc12)C(=O)N1CCC[C@H]1C(=O)N[C@@H](CCCCN)C(=O)N[C@@H](CCCCN)C(=O)N[C@@H](CCCCN)C(=O)N[C@@H](CCCCN)C(=O)O)[C@@H](C)O` has a peptide release of 32.7 µg (gelatin hydrogel 50 mg/mL; 56.6 µg loaded, 72 h, no cross-linker, added: PBS).
